Measurements from different studies.
Cell line: MOLT-4

With `CCCC(CCC)C(=O)OCc1cn(-c2cc3ccccc3oc2=O)nn1` the growth percentage was 95% (NCI60 single-dose screen; 10 µM).
`CN(C)CCN1CCN(c2ccc3nc(-c4ccc5nc(-c6ccc(C(F)(F)F)cc6)[nH]c5c4)[nH]c3c2)CC1` has a growth percent of 44.2% (SRB; 10 µM, 48 h).
`NC(=O)c1ccc(-c2ccccc2Cl)c2c3c([nH]c12)CC[C@@H](N)C3` has an IC50 of 0.0244 µM (cell growth or viability).
For `COc1ccc2c(c1)Cc1c-2nc(N)c(C#N)c1-c1ccc(CO)o1`, the IC50 was 5.1 µM (cell growth or viability, ATP luminescence).
`CC(C)c1ccc(N(C)c2ccc3c(c2)OCC[C@H]3CNc2cnccc2C(=O)O)cc1` has an IC50 of 0.00125 µM (cell growth or viability, ATP luminescence; 7 days).
`CC[C@H](CO)Nc1nc(NCc2ccc(-c3ccccn3)cc2)c2ncn(C(C)C)c2n1`: “log2 fold change” -1.84 (tandem mass tag proteomics, item: CDK12; 1 µM, 5 h; baseline: DMSO).
For `N#Cc1c(N)nc2c(c1-c1ccc(F)cc1)Cc1cc(O)ccc1-2`, the IC50 was 5.9 µM (cell growth or viability, ATP luminescence).
`CN1CCC(N[C@H]2CCc3[nH]c4c(C(N)=O)ccc(-c5ccccc5Cl)c4c3C2)CC1` gave an IC50 of 1.8 µM (cell growth or viability).
`N#Cc1c(N)nc2c(c1-c1ccc(CO)o1)Cc1cc(O)ccc1-2` gave an IC50 of 2 µM (cell growth or viability, ATP luminescence).
The IC50 of `Cc1ccc([N+](=O)[O-])cc1S(=O)(=O)N(C)/N=C/c1cnc2ccc(Br)cn12` is reported as 0.527 µM (cell growth or viability).

Some of these lines once more:
With `CCCC(CCC)C(=O)OCc1cn(-c2cc3ccccc3oc2=O)nn1` the growth percentage was 95% (NCI60 single-dose screen; 10 µM).
